Assay results from different studies.
Numbered parts are unrelated; each lists some results of a single study.
Sequence of UniProt P10721 (whole entry, unmodified, looked up): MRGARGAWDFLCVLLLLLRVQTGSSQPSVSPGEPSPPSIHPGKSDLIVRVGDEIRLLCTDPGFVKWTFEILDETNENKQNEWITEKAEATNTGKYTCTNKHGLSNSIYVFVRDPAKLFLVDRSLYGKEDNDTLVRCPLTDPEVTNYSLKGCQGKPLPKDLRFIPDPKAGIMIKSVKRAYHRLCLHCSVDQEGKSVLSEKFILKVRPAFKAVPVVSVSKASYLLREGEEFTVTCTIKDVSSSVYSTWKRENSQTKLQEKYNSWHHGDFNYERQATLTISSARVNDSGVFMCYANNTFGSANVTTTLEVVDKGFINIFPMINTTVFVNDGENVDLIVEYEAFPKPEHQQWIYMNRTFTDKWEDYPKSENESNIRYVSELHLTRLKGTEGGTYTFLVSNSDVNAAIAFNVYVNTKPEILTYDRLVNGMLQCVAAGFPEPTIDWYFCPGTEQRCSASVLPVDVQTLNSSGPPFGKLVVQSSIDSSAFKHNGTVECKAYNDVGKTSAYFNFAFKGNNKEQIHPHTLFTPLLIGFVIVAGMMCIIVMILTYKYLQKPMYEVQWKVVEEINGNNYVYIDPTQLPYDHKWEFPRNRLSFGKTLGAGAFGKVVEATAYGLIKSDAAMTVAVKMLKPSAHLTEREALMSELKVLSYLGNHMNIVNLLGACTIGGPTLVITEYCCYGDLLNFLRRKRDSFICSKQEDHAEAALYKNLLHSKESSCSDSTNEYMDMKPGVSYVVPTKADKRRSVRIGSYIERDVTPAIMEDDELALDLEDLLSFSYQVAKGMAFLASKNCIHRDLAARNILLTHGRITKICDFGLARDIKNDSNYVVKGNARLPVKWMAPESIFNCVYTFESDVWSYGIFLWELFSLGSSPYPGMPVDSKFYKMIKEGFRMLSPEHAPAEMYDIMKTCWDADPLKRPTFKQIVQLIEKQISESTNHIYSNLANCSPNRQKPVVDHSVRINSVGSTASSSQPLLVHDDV
Sequence of UniProt Q16512 (whole entry, looked up): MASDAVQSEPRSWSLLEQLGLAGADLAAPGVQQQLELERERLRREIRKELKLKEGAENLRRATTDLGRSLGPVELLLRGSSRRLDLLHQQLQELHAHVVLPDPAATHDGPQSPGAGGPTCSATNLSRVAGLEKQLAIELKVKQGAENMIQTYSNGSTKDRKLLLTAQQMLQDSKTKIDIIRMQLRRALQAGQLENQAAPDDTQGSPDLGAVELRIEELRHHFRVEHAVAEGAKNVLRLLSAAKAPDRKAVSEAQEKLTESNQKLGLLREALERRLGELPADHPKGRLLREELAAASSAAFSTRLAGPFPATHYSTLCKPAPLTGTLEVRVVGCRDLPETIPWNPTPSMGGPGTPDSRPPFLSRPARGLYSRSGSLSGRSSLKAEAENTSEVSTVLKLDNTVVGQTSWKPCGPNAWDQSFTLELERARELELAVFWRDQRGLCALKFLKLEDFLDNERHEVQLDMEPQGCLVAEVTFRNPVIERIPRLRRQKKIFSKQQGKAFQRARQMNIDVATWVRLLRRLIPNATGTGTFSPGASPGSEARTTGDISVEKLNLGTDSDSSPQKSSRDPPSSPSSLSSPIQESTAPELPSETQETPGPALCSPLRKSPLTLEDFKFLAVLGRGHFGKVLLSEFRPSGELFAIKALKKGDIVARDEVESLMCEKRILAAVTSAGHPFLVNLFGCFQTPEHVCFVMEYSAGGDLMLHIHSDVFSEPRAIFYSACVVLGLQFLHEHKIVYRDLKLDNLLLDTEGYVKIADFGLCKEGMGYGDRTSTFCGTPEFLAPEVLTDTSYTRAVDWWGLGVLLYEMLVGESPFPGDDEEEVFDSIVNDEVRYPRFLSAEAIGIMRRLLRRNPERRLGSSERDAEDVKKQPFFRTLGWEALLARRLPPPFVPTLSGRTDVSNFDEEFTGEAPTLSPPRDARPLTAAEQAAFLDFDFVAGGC
Sequence of UniProt P16591 (whole entry, looked up): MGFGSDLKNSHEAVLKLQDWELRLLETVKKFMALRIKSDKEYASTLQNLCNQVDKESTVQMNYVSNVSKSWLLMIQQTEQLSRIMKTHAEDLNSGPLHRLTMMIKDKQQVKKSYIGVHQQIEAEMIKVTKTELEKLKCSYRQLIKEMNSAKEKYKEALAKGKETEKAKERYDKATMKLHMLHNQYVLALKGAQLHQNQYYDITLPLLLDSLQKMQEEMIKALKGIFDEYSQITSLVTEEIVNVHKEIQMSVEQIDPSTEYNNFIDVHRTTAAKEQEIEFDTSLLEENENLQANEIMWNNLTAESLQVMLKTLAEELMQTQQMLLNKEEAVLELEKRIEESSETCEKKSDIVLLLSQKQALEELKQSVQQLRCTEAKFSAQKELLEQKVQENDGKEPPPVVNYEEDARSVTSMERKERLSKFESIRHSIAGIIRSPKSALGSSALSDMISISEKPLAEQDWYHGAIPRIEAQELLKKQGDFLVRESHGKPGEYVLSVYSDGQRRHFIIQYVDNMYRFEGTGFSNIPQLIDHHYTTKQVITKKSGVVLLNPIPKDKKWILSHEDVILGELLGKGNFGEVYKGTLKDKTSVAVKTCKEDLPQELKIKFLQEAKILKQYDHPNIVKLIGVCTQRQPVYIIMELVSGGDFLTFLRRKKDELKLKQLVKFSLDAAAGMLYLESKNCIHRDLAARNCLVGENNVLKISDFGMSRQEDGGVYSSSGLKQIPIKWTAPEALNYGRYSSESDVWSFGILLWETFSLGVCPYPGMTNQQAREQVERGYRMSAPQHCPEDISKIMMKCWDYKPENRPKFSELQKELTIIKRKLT
Sequence of UniProt P36507 (whole entry, looked up): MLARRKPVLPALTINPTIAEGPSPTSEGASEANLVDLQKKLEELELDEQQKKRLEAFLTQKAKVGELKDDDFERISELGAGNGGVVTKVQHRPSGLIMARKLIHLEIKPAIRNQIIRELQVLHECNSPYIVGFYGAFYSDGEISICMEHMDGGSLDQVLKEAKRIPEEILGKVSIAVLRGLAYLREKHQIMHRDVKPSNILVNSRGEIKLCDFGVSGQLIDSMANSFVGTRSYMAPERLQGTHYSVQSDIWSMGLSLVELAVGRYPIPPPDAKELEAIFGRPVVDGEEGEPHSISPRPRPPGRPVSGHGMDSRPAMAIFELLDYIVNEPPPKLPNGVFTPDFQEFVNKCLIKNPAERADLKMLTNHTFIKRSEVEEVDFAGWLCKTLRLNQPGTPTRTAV
Sequence of UniProt P53667 (whole entry, looked up): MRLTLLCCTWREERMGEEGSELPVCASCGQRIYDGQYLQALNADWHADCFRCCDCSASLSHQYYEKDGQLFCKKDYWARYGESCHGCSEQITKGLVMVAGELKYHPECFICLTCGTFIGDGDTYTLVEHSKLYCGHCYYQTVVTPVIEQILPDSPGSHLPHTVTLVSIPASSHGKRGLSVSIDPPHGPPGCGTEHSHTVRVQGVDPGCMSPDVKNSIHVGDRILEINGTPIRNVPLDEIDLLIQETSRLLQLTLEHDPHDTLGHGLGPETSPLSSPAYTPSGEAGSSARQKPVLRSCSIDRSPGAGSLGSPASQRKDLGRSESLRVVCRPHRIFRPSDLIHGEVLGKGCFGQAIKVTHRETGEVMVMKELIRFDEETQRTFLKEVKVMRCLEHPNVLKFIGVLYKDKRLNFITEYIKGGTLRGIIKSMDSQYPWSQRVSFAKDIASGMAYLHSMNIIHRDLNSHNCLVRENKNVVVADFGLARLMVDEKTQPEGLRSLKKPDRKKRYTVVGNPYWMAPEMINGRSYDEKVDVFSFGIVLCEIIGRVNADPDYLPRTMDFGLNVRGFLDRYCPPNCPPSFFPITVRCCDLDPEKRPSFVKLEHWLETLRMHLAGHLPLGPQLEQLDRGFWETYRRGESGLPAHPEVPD
Sequence of UniProt P42679 (whole entry, looked up): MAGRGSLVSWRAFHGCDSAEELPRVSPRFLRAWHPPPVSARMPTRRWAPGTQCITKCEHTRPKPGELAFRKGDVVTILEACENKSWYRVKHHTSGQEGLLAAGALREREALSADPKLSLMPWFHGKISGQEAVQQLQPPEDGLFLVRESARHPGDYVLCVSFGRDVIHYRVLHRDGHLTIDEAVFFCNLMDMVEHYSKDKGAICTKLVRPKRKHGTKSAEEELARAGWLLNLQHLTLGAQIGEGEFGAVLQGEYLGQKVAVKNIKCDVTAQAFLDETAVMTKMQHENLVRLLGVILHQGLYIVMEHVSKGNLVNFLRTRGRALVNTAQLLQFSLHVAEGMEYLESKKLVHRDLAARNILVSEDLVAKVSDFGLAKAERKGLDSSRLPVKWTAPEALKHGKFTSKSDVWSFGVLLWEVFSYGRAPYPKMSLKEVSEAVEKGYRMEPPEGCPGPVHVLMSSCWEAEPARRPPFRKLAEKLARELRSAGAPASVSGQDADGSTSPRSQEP

Set 1 — observed: cell-free assay; technique: competition with immobilised ligand; tested at: 1 µM
SMILES: O=C(Nc1ccc(Oc2ccc(F)cc2)cc1)N1CCc2ncccc2[C@H]1c1ccc(F)cc1
The remaining binding was 98% (Tyrosine-protein kinase ABL1, non-phosphorylated (ABL1, Homo sapiens, UniProt P00519, H396P)).
It gave 90% for remaining binding (Mast/stem cell growth factor receptor Kit (KIT, Homo sapiens, UniProt P10721, V559D/V654A)).
It gave 100% for remaining binding (Serine/threonine-protein kinase BRSK1 (BRSK1, Homo sapiens, UniProt Q8TDC3)).
It gave 100% for remaining binding (Hepatocyte growth factor receptor (MET, Homo sapiens, UniProt P08581)).
Cyclin-dependent kinase-like 5 (CDKL5, Homo sapiens, UniProt O76039) — remaining binding: 100%.
Ribosomal protein S6 kinase alpha-4, C-terminal kinase domain (RPS6KA4, Homo sapiens, UniProt O75676) — remaining binding: 73%.
For Phosphatidylinositol 4,5-bisphosphate 3-kinase catalytic subunit alpha isoform (PIK3CA, Homo sapiens, UniProt P42336, H1047Y): remaining binding read 100%.
It gave 84% for remaining binding (Ribosomal protein S6 kinase alpha-3, N-terminal kinase domain (RPS6KA3, Homo sapiens, UniProt P51812)).
The remaining binding was 100% (Dual specificity protein kinase CLK4 (CLK4, Homo sapiens, UniProt Q9HAZ1)).
It gave 83% for remaining binding (Epidermal growth factor receptor (EGFR, Homo sapiens, UniProt P00533, L861Q)).
For Serine/threonine-protein kinase N1 (PKN1, Homo sapiens, UniProt Q16512): remaining binding read 100%.
For SNF-related serine/threonine-protein kinase (SNRK, Homo sapiens, UniProt Q9NRH2): remaining binding read 90%.
Dual specificity mitogen-activated protein kinase kinase 2 (MAP2K2, Homo sapiens, UniProt P36507) — remaining binding: 100%.
It gave 85% for remaining binding (Mast/stem cell growth factor receptor Kit (KIT, Homo sapiens, UniProt P10721, T670I/V559D)).
It gave 52% for remaining binding (Serine/threonine-protein kinase PAK 2 (PAK2, Homo sapiens, UniProt Q13177)).
It gave 100% for remaining binding (Mast/stem cell growth factor receptor Kit (KIT, Homo sapiens, UniProt P10721, D816V)).
For Tyrosine-protein kinase ABL1, phosphorylated (ABL1, Homo sapiens, UniProt P00519, Q252H): remaining binding read 88%.
For TRAF2 and NCK-interacting protein kinase (TNIK, Homo sapiens, UniProt Q9UKE5): remaining binding read 100%.

Set 2 — SMILES: Cc1ccc(NC2=CC(=O)c3sc(C)nc3C2=O)cc1; observed: enzyme activity; mode: inhibitor; tested at: 0.5 µM; relative to: control
It gave 88.3% for remaining activity (Megakaryocyte-associated tyrosine-protein kinase (MATK, Homo sapiens, UniProt P42679)).
Serine/threonine-protein kinase NLK (NLK, Homo sapiens, UniProt Q9UBE8) — remaining activity: 107%.
For RAC-alpha serine/threonine-protein kinase (AKT1, Homo sapiens, UniProt P31749): remaining activity read 83.3%.
For MAP/microtubule affinity-regulating kinase 3 (MARK3, Homo sapiens, UniProt P27448): remaining activity read 95.1%.
The remaining activity was 98.3% (Serine/threonine-protein kinase Nek11 (NEK11, Homo sapiens, UniProt Q8NG66)).
For Tyrosine-protein kinase Fgr (FGR, Homo sapiens, UniProt P09769): remaining activity read 85.3%.
Insulin receptor (INSR, Homo sapiens, UniProt P06213) — remaining activity: 92.6%.
Serine/threonine-protein kinase 25 (STK25, Homo sapiens, UniProt O00506) — remaining activity: 93.4%.
The remaining activity was 95.7% (Vascular endothelial growth factor receptor 3 (FLT4, Homo sapiens, UniProt P35916)).
The remaining activity was 98.9% (Serine/threonine-protein kinase N1 (PKN1, Homo sapiens, UniProt Q16512)).
The remaining activity was 96.8% (cAMP-dependent protein kinase catalytic subunit PRKX (PRKX, Homo sapiens, UniProt P51817)).
It gave 83.9% for remaining activity (Tyrosine-protein kinase Fer (FER, Homo sapiens, UniProt P16591)).
The remaining activity was 98.6% (Tyrosine-protein kinase ITK/TSK (ITK, Homo sapiens, UniProt Q08881)).
For Cyclin-dependent kinase 3, with cyclin E (CDK3, Homo sapiens, UniProt Q00526): remaining activity read 88.5%.
The remaining activity was 77.6% (Serine/threonine-protein kinase MRCK alpha (CDC42BPA, Homo sapiens, UniProt Q5VT25)).
For Tyrosine-protein kinase Fyn (FYN, Homo sapiens, UniProt P06241): remaining activity read 95.6%.
For PAS domain-containing serine/threonine-protein kinase (PASK, Homo sapiens, UniProt Q96RG2): remaining activity read 89.4%.
Homeodomain-interacting protein kinase 1 (HIPK1, Homo sapiens, UniProt Q86Z02) — remaining activity: 96.7%.
LIM domain kinase 1 (LIMK1, Homo sapiens, UniProt P53667) — remaining activity: 104%.
For Serine/threonine-protein kinase TAO3 (TAOK3, Homo sapiens, UniProt Q9H2K8): remaining activity read 98.9%.
The remaining activity was 105% (ALK tyrosine kinase receptor (ALK, Homo sapiens, UniProt Q9UM73)).
It gave 79.6% for remaining activity (Proto-oncogene tyrosine-protein kinase Src (SRC, Homo sapiens, UniProt P12931)).

Set 3 — observed: enzyme activity; mode: inhibitor; tested at: 10 µM
Target: Calcium/calmodulin-dependent protein kinase type II subunit alpha (CAMK2A, Homo sapiens, UniProt Q9UQM7)
Sequence of UniProt Q9UQM7 (whole entry, looked up): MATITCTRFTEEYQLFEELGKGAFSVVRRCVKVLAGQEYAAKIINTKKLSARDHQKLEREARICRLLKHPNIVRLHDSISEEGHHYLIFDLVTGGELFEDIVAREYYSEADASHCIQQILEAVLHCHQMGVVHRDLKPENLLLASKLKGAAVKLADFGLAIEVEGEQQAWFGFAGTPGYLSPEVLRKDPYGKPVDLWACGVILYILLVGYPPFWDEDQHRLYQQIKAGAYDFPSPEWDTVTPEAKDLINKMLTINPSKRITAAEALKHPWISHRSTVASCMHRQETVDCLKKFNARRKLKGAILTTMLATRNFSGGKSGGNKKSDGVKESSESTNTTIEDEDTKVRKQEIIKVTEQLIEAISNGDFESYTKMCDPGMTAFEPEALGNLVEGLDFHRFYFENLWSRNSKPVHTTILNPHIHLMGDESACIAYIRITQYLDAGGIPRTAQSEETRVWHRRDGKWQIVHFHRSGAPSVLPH
`CC(C)Oc1ccc(-c2nc(-c3cccc4c3CC[C@@H]4NCCO)no2)cc1C#N` has an inhibition of 10%.
`C=CC(C)(C)O[C@@H]1O[C@H](CO)[C@@H](O)[C@H](O)[C@H]1O` gave an inhibition of 29%.
The inhibition of `CCCCCN=C(N)N/N=C/c1c[nH]c2ccc(OC)cc12` is reported as -4%.
`CC/C=C/C=C\CCCCCCCCOC(C)=O` has an inhibition of -30%.
With `CC(C)(O)CC[C@@H](O)[C@](C)(O)[C@H]1CC=C2C3=C(CC[C@@]21C)[C@@]1(C)C[C@H](O)[C@H](O)C[C@H]1C(=O)C3` the inhibition was 4%.
With `COc1cc(OC)c2ccc(=O)oc2c1` the inhibition was -20%.
`Cc1cc(=O)oc2cc(O)ccc12` has an inhibition of 25%.
`COc1ccc(/C=C/c2cc(O)cc(O[C@@H]3O[C@H](CO)[C@@H](O)[C@H](O)[C@H]3O)c2)cc1O` gave an inhibition of -48%.

Set 4 — observed: acetyl-histone H4 peptide binding; technique: AlphaScreen displacement; tested at: 50 µM
Target: Bromodomain-containing protein 4, BD1 (BRD4, Homo sapiens, UniProt O60885)
`Cc1ccc(-c2csc3nc[nH]c(=O)c23)cc1C` has an inhibition of 19.9%.
`Nc1nc(Nc2cccc(C(F)(F)F)c2)sc1C(=O)c1ccccc1` has an inhibition of 6.6%.
With `CS(=O)(=O)O.Cn1cc(C2=C(c3cn(CCCSC(=N)N)c4ccccc34)C(=O)NC2=O)c2ccccc21` the inhibition was 97.4%.
`O=C(O)COc1ccccc1C=NNC(=O)c1cc(-c2ccc3c4c(cccc24)CC3)n[nH]1` has an inhibition of 19%.
With `Nc1nccc(-c2c(-c3ccc(F)cc3)ncn2C2CCCCC2)n1` the inhibition was 15.8%.
The inhibition of `CC(=O)Nc1cccc(NC(=O)CSc2ccc3nnc(-c4cccc(F)c4)n3n2)c1` is reported as 18.2%.
`Nc1nc(NCc2ccc(F)cc2)c2nc[nH]c2n1` gave an inhibition of 26.2%.
`O=C1NC(=O)C(=Cc2ccc(-c3ccc(Cl)c(Cl)c3)o2)S1` gave an inhibition of 44.6%.
The inhibition of `COc1ccc(-c2nnc3ccc(SCC(=O)O)nn23)cc1OC` is reported as 9.4%.
`O=c1[nH]cnc2scc(-c3ccc(Cl)cc3)c12` has an inhibition of 79.7%.
With `COc1cc2ncnc(Nc3cccc(Br)c3)c2cc1OC` the inhibition was 26.4%.

For quick reference, copied from above (set 2):
The remaining activity was 98.6% (Tyrosine-protein kinase ITK/TSK (ITK, Homo sapiens, UniProt Q08881)).
The remaining activity was 95.7% (Vascular endothelial growth factor receptor 3 (FLT4, Homo sapiens, UniProt P35916)).
For RAC-alpha serine/threonine-protein kinase (AKT1, Homo sapiens, UniProt P31749): remaining activity read 83.3%.
It gave 88.3% for remaining activity (Megakaryocyte-associated tyrosine-protein kinase (MATK, Homo sapiens, UniProt P42679)).
